Results from different studies.
Compare with care: the assays were run in different laboratories. Numbers after ± are the reported error.

Compound = NCCCC[C@@H]1NC(=O)[C@@H](Cc2c[nH]c3ccccc23)NC(=O)[C@H](c2ccccc2)NC(=O)[C@@H]2C[C@@H](OC(=O)NCCN)CN2C(=O)[C@H](Cc2ccccc2)NC(=O)[C@H](Cc2ccc(OCc3ccccc3)cc2)NC1=O; test system = healthy volunteers, male; conditions = 1950 µg twice daily, 2.0 h, post hoc; measurement = placebo-corrected QTcF change; result = 15.8 ms
Compound = COc1c(OCCCN2CCOCC2)ccc2c1N=C(NC(=O)c1cnc(N)nc1)N1CCN=C21; test system = patients with advanced malignancies; conditions = intravenous, dose not given, all grades, all cohorts, added: gemcitabine; measurement = maculopapular rash incidence; result = 26%
Compound = O=C(c1ccc(F)c(F)c1Nc1ccc(I)cc1F)N1CC(O)([C@@H]2CCCCN2)C1; test system = patients aged sample A to sample B years; conditions = oral, dose not given; measurement = SAE leading dose modification; result = 0%
Compound = [O-][S+]1CCc2nc(N3CCC(c4ncc(Cl)cn4)CC3)nc(NC3(CO)CCC3)c21 (stereo not drawn); assay = refers to: Headache; test system = healthy male humans; conditions = single dose, all groups; measurement = adverse event incidence; result = 33.3%
Compound = CCC(CC)O[C@@H]1C=C(C(=O)O)C[C@H](N)[C@H]1NC(C)=O; test system = Sprague-Dawley rat male, plasma and urine; conditions = oral, 30 mg/kg; measurement = elimination rate constant; result = 0.851 h⁻¹
Compound = CC(C)[C@@H]1NC(=O)CNC(=O)[C@H](CC(N)=O)NC(=O)[C@H](CCCNC(=N)N)NC(=O)[C@H](Cc2ccc(O)cc2)NC(=O)[C@H](C(C)C)NC(=O)[C@@H](NC(=O)[C@@H](NC(=O)[C@H](CC(N)=O)NC(=O)[C@H](Cc2c[nH]c3ccccc23)NC(=O)[C@H](C)NC(=O)[C@H](Cc2ccccc2)NC(=O)CN)C(C)C)CSSC[C@@H](C(=O)N[C@@H](Cc2cnc[nH]2)C(=O)N[C@@H](CCCNC(=N)N)C(=O)N[C@@H](CCCNC(=N)N)C(=O)N[C@@H](C)C(=O)N[C@@H](CC(N)=O)C(N)=O)NC(=O)[C@H](C(C)C)NC(=O)[C@H](CCCNC(=N)N)NC1=O; test system = ICR mouse; conditions = ip, 10 mg/kg; how to read = direction not given; measurement = lachrymation score; result = 0
Compound = O=C(c1cc2cccnc2n1-c1ccc(Cl)c(Cl)c1)N1CC(F)(F)C1; test system = mouse; conditions = intravenous, 5 mg/kg; measurement = clearance; result = 20.9 mL/min/kg
Compound = COc1ccnc(C(=O)N[C@H]2COC(=O)[C@H](Cc3ccccc3)[C@@H](OC(=O)C(C)C)[C@H](C)OC2=O)c1OCOC(=O)C(C)C; test system = dog; conditions = oral, 90 day, highest dose tested; measurement = NOAEL; result = 939 mg/kg/day
Compound = C=CC(=O)N1CCC(CNc2ncnc(N)c2-c2ccc(Oc3ccccc3)cc2)CC1; test system = dog; conditions = GLP pivotal toxicology; measurement = NOAEL; result = 250 mg/kg
Compound = Cc1ccc(F)c2cc(C(=O)N[C@@H]3CCC[C@H](N4CC[C@H](N(C)S(C)(=O)=O)C4)C3)[nH]c12; test system = CD1 mouse; conditions = intravenous, 1 mg/kg, 1 h; measurement = plasma concentration; result = 66.2 ng/mL
Compound = C[C@]1(CO)Cc2ncn(-c3ccc(C#N)c(Cl)c3)c2C(=O)O1; assay = investigator-assessed; test system = human, Chinese; conditions = 3 mg single dose; measurement = subjects with drug-related TEAEs; result = 16.7%
Compound = CO[C@H]1C[C@@H]2CC[C@@H](C)[C@@](O)(O2)C(=O)C(=O)N2CCCC[C@H]2C(=O)O[C@H]([C@H](C)C[C@@H]2CC[C@@H](OC(=O)NCCOCCOCCOCCOCCOCCOCCOCCOCCC(=O)N3CCc4cc(Cn5nc(-c6ccc7oc(N)nc7c6)c6c(N)ncnc65)ccc4C3)[C@H](OC)C2)C[C@@H](O)[C@H](C)/C=C(\C)[C@@H](O)[C@@H](OC)C(=O)[C@H](C)C[C@H](C)/C=C/C=C/C=C/1C; test system = patients with advanced solid tumours; conditions = intravenous, dose not given, any grade; measurement = incidence of Mucositis TEAE; result = 57.9%
Compound = O=C(O)CNCP(=O)(O)O; test system = whole cow milk; conditions = 200 nM nominal; measurement = dose fraction in milk fat; result = 0.97%
Compound = CC(=O)c1c(C)c2cnc(Nc3ccc(C4CCN(CCS(C)(=O)=O)CC4)cn3)nc2n(C2CCCC2)c1=O; test system = human patients, plasma; conditions = oral, 75 mg twice daily, day 1 single dose, added: fulvestrant; measurement = AUC(0-inf); result = 938 ng·h/mL
Compound = O=C(Nc1ccccc1)C1CCN(C(=O)Oc2cccnc2)CC1; assay = adverse event reporting; test system = healthy women; conditions = oral, 100 mg, 9 days; measurement = subjects with sleep disorder; result = 0%
Compound = CCc1ccc(CC/C=C/c2ccc3c(c2)C(=O)CC3)cc1; test system = Sprague-Dawley rat, male, blood; conditions = oral, 30 mg/kg/day, 14 days; measurement = APTT; result = 15.4 s
Compound = Clc1ccc(-c2ccccc2)cc1; test system = Sprague-Dawley rats, female, serum; conditions = inhalation, 23 µg/rat, 4 h after exposure; measurement = gamma-glutamyltransferase; result = 0.3 ± 0.6 U/L
Compound = CN1CC[C@@H](c2c(O)cc(O)c3c(=O)cc(-c4ccc(C(F)(F)F)cc4Cl)oc23)[C@@H]1CO; assay = refers to: Epistaxis; test system = AML; conditions = oral, 150 mg, intermittent dosing; measurement = patients with adverse event; result = 50%
Compound = O=S(=O)(Nc1ccccc1)c1ccc(NC(=S)Nc2ccccc2)cc1; test system = female mouse, blood; conditions = oral, 20 mg/kg daily, 14 days; measurement = albumin level; result = 3.08 g/dL
Compound = CCN1[C@@H](C(=O)NC23CCC(C(=O)O)(CC2)CC3)[C@H](c2cccc(Cl)c2F)[C@]2(C(=O)Nc3cc(Cl)ccc32)C12CCCCC2; test system = patients with advanced solid tumours; conditions = oral, 100 mg; measurement = Leukopenia incidence; result = 45.5%
Compound = O=C(O)C(O)(c1cccs1)c1cccs1; assay = refers to: metabolite; test system = human, plasma; conditions = oral, 50 mg once daily, 5 days, median; measurement = dose-normalised free Cmax; result = 0.0132 (ng/mL)/mg
Compound = Cc1cc(C)c(CNC(=O)c2cc(Cl)c3c(c2C)O[C@@](C)([C@H]2CC[C@H](N(C)C)CC2)O3)c(=O)[nH]1; test system = relapsed/refractory NHL patients; conditions = dose not given, trial, safety set, all TEAEs grade 5; measurement = incidence of tooth infection; result = 0%
Compound = CC(C)(C)c1cc(-n2nc3ccccc3n2)c(O)c(C(C)(C)C)c1; assay = exposure assessment; test system = human, age 16-21 years; conditions = sunscreen; measurement = mean daily dermal uptake; result = 1.29 ng/kg body weight/day
Compound = C[C@@H](NC(=O)N1C(=O)[C@H](Cc2ccnc(N)c2)[C@H]1C(=O)O)C1CCCCC1; test system = healthy Chinese adult volunteers; conditions = continuous intravenous infusion, dose not given, 5.0 days, all doses pooled; measurement = subjects with AEs leading to discontinuation; result = 7.5%
Compound = COc1ccc(CCC2CCCC(CCc3ccc(OC)cc3)N2C[C@@H](O)CO)cc1.Cl (stereo in doubt); test system = rabbit Purkinje fibres; conditions = 0.3 µM, cycle length 0.5 s; how to read = reference: baseline; measurement = Vmax change; result = -2.5 ± 4.5%
Compound = COc1cc2c(Oc3ccc4[nH]c(C)cc4c3F)ccnc2cc1OCC1(N)CC1; test system = paediatric recurrent refractory sarcoma; conditions = 10 mg; measurement = Leukopenia incidence; result = 25%
Compound = CCCCCCCCCCCCCCCC(=O)N[C@@H](CCC(=O)NCCCC[C@H](NC(=O)[C@H](CC(=O)O)NC(=O)[C@H](CO)NC(=O)[C@@H](NC(=O)[C@H](Cc1ccccc1)NC(=O)[C@@H](NC(=O)CNC(=O)[C@H](CCC(N)=O)NC(=O)[C@H](CO)NC(=O)[C@@H](N)Cc1c[nH]cn1)[C@@H](C)O)[C@@H](C)O)C(=O)N[C@@H](CO)C(=O)N[C@@H](CCC(=O)O)C(=O)N[C@@H](Cc1ccc(O)cc1)C(=O)N[C@@H](CC(C)C)C(=O)N[C@@H](CC(=O)O)C(=O)N[C@@H](CO)C(=O)N[C@@H](CCC(=O)O)C(=O)N[C@@H](CCCNC(=N)N)C(=O)N[C@@H](C)C(=O)N[C@@H](CCCNC(=N)N)C(=O)N[C@@H](CC(=O)O)C(=O)N[C@@H](Cc1ccccc1)C(=O)N[C@H](C(=O)N[C@@H](C)C(=O)N[C@@H](Cc1c[nH]c2ccccc12)C(=O)N[C@@H](CC(C)C)C(=O)N[C@@H](CCC(=O)O)C(=O)N[C@@H](C)C(=O)NCC(=O)NCC(=O)O)C(C)C)C(=O)O; test system = human, CrCl ≥45 to <60 mL/min; conditions = sc, 100 µg single dose; measurement = abdominal distension; result = 0%

A few entries again:
Compound = COc1ccc(CCC2CCCC(CCc3ccc(OC)cc3)N2C[C@@H](O)CO)cc1.Cl (stereo in doubt); test system = rabbit Purkinje fibres; conditions = 0.3 µM, cycle length 0.5 s; how to read = reference: baseline; measurement = Vmax change; result = -2.5 ± 4.5%
Compound = CCCCCCCCCCCCCCCC(=O)N[C@@H](CCC(=O)NCCCC[C@H](NC(=O)[C@H](CC(=O)O)NC(=O)[C@H](CO)NC(=O)[C@@H](NC(=O)[C@H](Cc1ccccc1)NC(=O)[C@@H](NC(=O)CNC(=O)[C@H](CCC(N)=O)NC(=O)[C@H](CO)NC(=O)[C@@H](N)Cc1c[nH]cn1)[C@@H](C)O)[C@@H](C)O)C(=O)N[C@@H](CO)C(=O)N[C@@H](CCC(=O)O)C(=O)N[C@@H](Cc1ccc(O)cc1)C(=O)N[C@@H](CC(C)C)C(=O)N[C@@H](CC(=O)O)C(=O)N[C@@H](CO)C(=O)N[C@@H](CCC(=O)O)C(=O)N[C@@H](CCCNC(=N)N)C(=O)N[C@@H](C)C(=O)N[C@@H](CCCNC(=N)N)C(=O)N[C@@H](CC(=O)O)C(=O)N[C@@H](Cc1ccccc1)C(=O)N[C@H](C(=O)N[C@@H](C)C(=O)N[C@@H](Cc1c[nH]c2ccccc12)C(=O)N[C@@H](CC(C)C)C(=O)N[C@@H](CCC(=O)O)C(=O)N[C@@H](C)C(=O)NCC(=O)NCC(=O)O)C(C)C)C(=O)O; test system = human, CrCl ≥45 to <60 mL/min; conditions = sc, 100 µg single dose; measurement = abdominal distension; result = 0%
